Published values from different studies.
Numbered parts are unrelated; each lists some results of a single study. Substitutions count along the parent as printed.
UniProt Q09013, sequence (whole entry, looked up): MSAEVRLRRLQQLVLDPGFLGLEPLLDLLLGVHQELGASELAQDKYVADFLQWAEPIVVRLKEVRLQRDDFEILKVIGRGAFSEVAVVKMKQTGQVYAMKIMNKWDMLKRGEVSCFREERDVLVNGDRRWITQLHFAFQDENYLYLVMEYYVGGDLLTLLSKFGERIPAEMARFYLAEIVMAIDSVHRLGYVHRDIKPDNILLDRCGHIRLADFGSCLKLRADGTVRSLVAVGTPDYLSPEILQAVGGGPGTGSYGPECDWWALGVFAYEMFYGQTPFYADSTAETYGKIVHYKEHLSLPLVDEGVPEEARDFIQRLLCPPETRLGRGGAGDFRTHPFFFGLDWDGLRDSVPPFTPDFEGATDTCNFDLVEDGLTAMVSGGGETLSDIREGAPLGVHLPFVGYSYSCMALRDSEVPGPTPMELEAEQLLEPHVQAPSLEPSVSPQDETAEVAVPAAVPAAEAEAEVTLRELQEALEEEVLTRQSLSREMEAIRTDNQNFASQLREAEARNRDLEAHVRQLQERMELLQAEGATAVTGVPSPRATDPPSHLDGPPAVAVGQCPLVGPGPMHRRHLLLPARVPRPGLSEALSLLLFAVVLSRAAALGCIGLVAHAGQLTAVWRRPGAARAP

Series 1 — target: CCNE1, cyclin fold, Cln2 fusion (human); technique: yeast growth competition, sequencing; sample: yeast; notes: strong parent motif; reference: not given; direction: higher = stronger binding; endpoint: normalised enrichment score
Parent: SCAPER docking peptide (human); SNARRSLNFGGST
SYARRSLNFGGST [N2Y]: 0.54
SLARRSLNFGGST [N2L]: 0.483
SNAFRSLNFGGST [R4F]: -0.143
SNARRSLNFGAST [G11A]: 1.06
SNARRSVNFGGST [L7V]: -0.399
SNARRSLHFGGST [N8H]: 0.924
SNARRNLNFGGST [S6N]: 0.73
SNARRSDNFGGST [L7D]: 0.435

Series 2 — technique: RNA Bind-n-Seq; form: RNA; sample: in vitro; concentration: 20 nM; notes: 6-mer, flanks averaged, single round; added: 150 mM KCl; reference: input library; direction: higher = stronger binding; endpoint: 6-mer enrichment (R)
Target: TAR DNA-binding protein 43, full length, His tag (TARDBP, Homo sapiens, UniProt Q13148, residues 1-414)
AUCGAA: 0.634
CGUUAA: 0.574
UAAUAA: 1.53
GCUACU: 0.642
GUUGGU: 1.16
AGUGUA: 0.931
GAACAU: 0.691
UUCGGU: 0.685

Series 3 — technique: competition protein-binding microarray; form: double-stranded DNA, one strand shown; sample: in vitro; concentration: 2 µM; added: Cbf1 competitor, 0.05 µM; direction: higher = stronger binding; endpoint: fluorescence intensity
Target: Phosphate system positive regulatory protein PHO4, full length, GST-tagged (PHO4, Saccharomyces cerevisiae, UniProt P07270, residues 1-312)
Notes: whole 60-bp probe, lowest competitor level
Residues (chain): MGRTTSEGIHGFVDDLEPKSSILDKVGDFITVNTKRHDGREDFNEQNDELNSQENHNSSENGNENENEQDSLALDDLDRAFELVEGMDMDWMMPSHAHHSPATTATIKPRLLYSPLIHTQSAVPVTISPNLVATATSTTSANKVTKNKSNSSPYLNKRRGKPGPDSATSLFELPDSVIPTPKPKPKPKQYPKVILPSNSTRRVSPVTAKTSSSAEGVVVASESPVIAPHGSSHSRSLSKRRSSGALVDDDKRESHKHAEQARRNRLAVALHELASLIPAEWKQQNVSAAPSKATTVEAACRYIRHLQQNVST
CATAGATCGCACCAGCGCGTGGGTATCTTTCATTATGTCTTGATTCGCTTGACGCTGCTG: 11600 a.u.
CTGTCGAAGAGTAGTCACCTGTTCCAACTAAGATAGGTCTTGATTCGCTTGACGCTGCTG: 5770 a.u.
AATATTAAAGTTCACAACGTGAAGACCTTCCTTTCTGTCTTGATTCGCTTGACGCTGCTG: 8430 a.u.
AAAGCGGTAATTTGCAACGTGGGTGCAGATATCTATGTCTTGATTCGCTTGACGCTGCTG: 14700 a.u.
CGTCCTAGCGATTATCACGTGTTTTCCATGAGGAAGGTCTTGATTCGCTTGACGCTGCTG: 19600 a.u.
AGTATGCCCATCAGCCTCGTGACGGATGAGGATCTCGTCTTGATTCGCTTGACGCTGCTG: 10200 a.u.
AAATTACTAAGTTGAAGTGTGGGTGACGCCGTATGAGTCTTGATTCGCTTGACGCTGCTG: 5020 a.u.
CTTTCCCGATCTTGGTTCGTGGGTGTAGCACATTTGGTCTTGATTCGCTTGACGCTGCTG: 7000 a.u.

Single results of other studies
CN(C)CCCn1cc(C2=C(c3c[nH]c4ccccc34)C(=O)NC2=O)c2ccccc21 — remaining activity (Myotonin-protein kinase (DMPK, Homo sapiens, UniProt Q09013); enzyme activity, inhibitor; 0.5 µM; reference: control): 94.7%

For quick reference, copied from above (series 3):
AAATTACTAAGTTGAAGTGTGGGTGACGCCGTATGAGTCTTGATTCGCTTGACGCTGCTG: 5020 a.u.
CTTTCCCGATCTTGGTTCGTGGGTGTAGCACATTTGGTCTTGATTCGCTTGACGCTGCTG: 7000 a.u.
